Published values collected from several papers.
Each numbered part is a random draw from the data of one study; scales do not carry over between parts. Positions count from the first letter of the parent shown.

Study 1
Target: CEP164, C-terminal peptide (human)
Technique: DHFR complementation, deep sequencing
Medium: yeast
Notes: single substitutions, model-inferred values
Baseline: wild type
Reading: higher = weaker binding
Starting sequence: PDZK1, PDZ domain 2 (human); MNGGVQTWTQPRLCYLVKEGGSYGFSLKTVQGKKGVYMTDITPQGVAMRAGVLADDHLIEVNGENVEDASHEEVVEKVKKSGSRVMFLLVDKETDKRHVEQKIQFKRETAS; partner HNRVKVYRF
`D91H`: “binding free energy change” 0.0347 kcal/mol.
`E19K` — result for “binding free energy change”: -0.118 kcal/mol.
Under “binding free energy change”, `G32H` is recorded as 0.3 kcal/mol.
Under “binding free energy change”, `A47T` is recorded as 0.676 kcal/mol.
For `G3D`, “binding free energy change” read -0.0202 kcal/mol.
`S83W` — result for “binding free energy change”: -0.157 kcal/mol.
For `V5K`, “binding free energy change” read -0.0381 kcal/mol.
`G4Y` — result for “binding free energy change”: 0.128 kcal/mol.
For `D95I`, “binding free energy change” read -0.0967 kcal/mol.
For `P43D`, “binding free energy change” read 0.178 kcal/mol.
`A54L` — result for “binding free energy change”: 0.166 kcal/mol.
Under “binding free energy change”, `R97C` is recorded as -0.0462 kcal/mol.
`S70M` — result for “binding free energy change”: 0.0366 kcal/mol.
`L27V` — result for “binding free energy change”: 0.0716 kcal/mol.
`V78M`: “binding free energy change” 2.12 kcal/mol.
Under “binding free energy change”, `M38E` is recorded as 1.98 kcal/mol.
For `E108Y`, “binding free energy change” read -0.196 kcal/mol.
`V61D`: “binding free energy change” 1.19 kcal/mol.
`Q10Y`: “binding free energy change” 0.308 kcal/mol.
Under “binding free energy change”, `Q101D` is recorded as -0.0846 kcal/mol.

Study 2
Target: CCNB3, cyclin fold, Cln2 fusion (human)
Technique: yeast growth competition, sequencing
Medium: yeast
Notes: weak parent motif
Baseline: not given
Reading: higher = stronger binding
Starting sequence: GMNC docking peptide (human); KNAKRNLSSEFAN; partner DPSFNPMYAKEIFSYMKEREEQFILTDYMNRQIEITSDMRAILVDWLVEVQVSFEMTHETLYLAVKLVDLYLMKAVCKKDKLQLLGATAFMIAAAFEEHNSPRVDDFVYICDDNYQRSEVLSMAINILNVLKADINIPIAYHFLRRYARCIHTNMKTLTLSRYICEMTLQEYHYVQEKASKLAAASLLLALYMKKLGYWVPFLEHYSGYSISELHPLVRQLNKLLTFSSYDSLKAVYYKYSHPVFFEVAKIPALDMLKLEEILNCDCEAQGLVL
For `KNAKRNLSSEFQN [A12Q]`, “normalised enrichment score” read 0.117.
`KNAKRNLSREFAN [S9R]`: “normalised enrichment score” 0.761.
For `KNAKRYLSSEFAN [N6Y]`, “normalised enrichment score” read -0.457.
For `KNAKQNLSSEFAN [R5Q]`, “normalised enrichment score” read -0.0925.
For `KWAKRNLSSEFAN [N2W]`, “normalised enrichment score” read 0.761.
`KNACRNLSSEFAN [K4C]` — result for “normalised enrichment score”: 0.127.
For `KQAKRNLSSEFAN [N2Q]`, “normalised enrichment score” read 0.275.
For `KYAKRNLSSEFAN [N2Y]`, “normalised enrichment score” read 0.27.
`KNAKRNLSVEFAN [S9V]` — result for “normalised enrichment score”: 0.51.
Under “normalised enrichment score”, `KNAKPNLSSEFAN [R5P]` is recorded as 0.0891.
`KNAKRNLSSIFAN [E10I]` — result for “normalised enrichment score”: 0.133.
`KNYKRNLSSEFAN [A3Y]`: “normalised enrichment score” -0.345.
For `KNAKRNLSCEFAN [S9C]`, “normalised enrichment score” read 0.476.
`KNAKRNLPSEFAN [S8P]` — result for “normalised enrichment score”: 0.0837.
For `KNAKRNLSSPFAN [E10P]`, “normalised enrichment score” read 0.209.
For `KNEKRNLSSEFAN [A3E]`, “normalised enrichment score” read -0.0884.
`KNHKRNLSSEFAN [A3H]` — result for “normalised enrichment score”: 0.0999.
For `KNAKRNASSEFAN [L7A]`, “normalised enrichment score” read 0.5.
For `KNAKRNLSSERAN [F11R]`, “normalised enrichment score” read 0.122.
Under “normalised enrichment score”, `KNRKRNLSSEFAN [A3R]` is recorded as 0.0475.
For `KNAKRNLSTEFAN [S9T]`, “normalised enrichment score” read 0.511.
Under “normalised enrichment score”, `KNAKRNLSSCFAN [E10C]` is recorded as -0.0147.

Study 3
Target: RING finger protein unkempt homolog, zinc fingers 1-6, GST-SBP tag (UNK, Homo sapiens, UniProt Q9C0B0, residues 30-357)
Chain of UniProt Q9C0B0 (30-357, looked up): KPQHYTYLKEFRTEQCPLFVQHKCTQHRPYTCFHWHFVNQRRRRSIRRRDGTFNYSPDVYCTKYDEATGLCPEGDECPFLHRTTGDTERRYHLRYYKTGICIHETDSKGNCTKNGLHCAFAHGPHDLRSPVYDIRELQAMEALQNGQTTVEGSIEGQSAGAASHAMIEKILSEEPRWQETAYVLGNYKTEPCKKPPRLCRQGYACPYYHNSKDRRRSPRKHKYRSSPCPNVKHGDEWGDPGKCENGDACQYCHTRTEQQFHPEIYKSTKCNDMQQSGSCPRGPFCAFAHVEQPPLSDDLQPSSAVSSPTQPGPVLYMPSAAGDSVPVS
Technique: RNA Bind-n-Seq
Form: RNA
Medium: in vitro
Concentration: not given
Notes: RNA with constant flanks, human and mouse sites, ends assumed
Baseline: input RNA pool
Reading: higher = stronger binding
Shared flanks, not repeated: GGGAGUUCUACAGUCCGACGAUC … CAACAGAGGAUUGAGCAUCA
`CCCAGUGCGGCAGCCCCAACGGGGGCUGGGGGCGUGGCCCCAGGCUCAGGGAACAACUCAGGGGGACCCAGCCUCCUGGUGCCACUGCCUGUGAAUCCUCCCAGCUCCCCAACGCCCAGC` gave a bound/input enrichment of 0.132 ratio.
For `AGCGGCCUGAAAGAUUUCAAAACCUUUUUGACAAAUGAUCAAGUAAAGGUCACCGAUGAAGAGAAUGCAAGUUCAGGUGCAGAUGCUCCCAGUGCAUCAGACACCACAGCCAAGCAAAAU`, the bound/input enrichment was 0.0994 ratio.
`UGUUGGUUAUUUUCUAAAUAUUUUUACAAGAAAAUUUAGUCUUAAAUUUGGAAGAAGAAACCCCCCCCUUGAAACUAUCAAUACUGUAAAUGUGACACAUGUUGCCCUGGUAAGGAUAUA` has a bound/input enrichment of 0.945 ratio.
For `CAGCGUCUCUGGGUGGGCCGCUGGCUGGCAGGCCAGGCCGGGGGCCUGCUGAGGGACCGUGGGCUGAGGAAGGAUGCCCGUGCCAGUGCCCGGGAUGCGGCUGUUGUCUACCAUAAGCUG`, the bound/input enrichment was 0.0351 ratio.
With `UAAGAUCACCUCGCGUCCCGAACCGCCGCCUCCAACUCUUGAGAACUCAAACGCCCGACAAGAAACUUGCACGAUCGCGCCCGCGGCCACCAACCCGAGCCAGAGCACCCACGGCCUGCA` the bound/input enrichment was 0.248 ratio.
For `GGUUUAAACUUUUAAUUCUGUAUUUCAUGAUUAUAAGUCUUGCUAGAAUUUUUUCUAAUCUUUAGUAGAUUUGAUUAAAUAAUGAUUCACAGAAUUUAGUAACAGAAUCAAACUAAGCCA`, the bound/input enrichment was 0.837 ratio.
The bound/input enrichment of `GUCUGUUAUGAAUUUGCUGUCCUUUUUAUUGUGUGUACCUGUACAGUUUUUCGGAGGCUGGUACUUCUACAUUCAGGCUUAUAAAGCACUGAAGCAUAAGACAGCAAAUAUGGACGUACU` is reported as 0.116 ratio.
`GAGACUUUUGAUGCAAAUGAUUUGUAUCAGGGGCAGAACUUUAACAAGGUCCUCAGCUCCUUGGUGACACUAAAUAAAGUGACAGCAGACAUUGGACUAGGAAGUGAUUCUGUGUGUGCU` has a bound/input enrichment of 0.305 ratio.
With `GCUAAUCAAGAGCCAGGUAUUUUACAACAAAAAAAUGCAGUUCAGAUUAUUAGUUCUGCUUUAGAUACUGAUAAUGAAUCUACAAAAGAUACAGAAAAUACUUUUGUCCUAGGAGAUGUU` the bound/input enrichment was 3.93 ratio.
With `GAAAAUAUGAUGAACUCUAUCUUUAAGGGUAUAUUUGUUCAUCGAUACCGUGAUGCAAUUGCUGAAAUUCGAGCCAUCUGUAUUGAAGAAAUUGGAGUGUGGAUGAAAAUGUAUAGCGAU` the bound/input enrichment was 0.27 ratio.
With `GGUGAAAAAUCAAAUGCCAAAAUUAAAGAUGAAGAUCAUAAUCCAGCAUUUGAAAACUCAGACUGCACACUGAAGAAGAUGGAUAAAGAGGGUAAAACAUUAAAAAAACAUAAAUUAAAA` the bound/input enrichment was 0.866 ratio.

Study 4
Target: Histone acetyltransferase KAT6A, winged helix 1, GST fusion (KAT6A, Homo sapiens, UniProt Q92794, residues 1-85)
Technique: protein binding microarray
Form: double-stranded DNA, one strand shown
Medium: in vitro
Concentration: not given
Notes: 8-mer, flanks averaged, mean of 2 arrays, mostly near background
Baseline: not given
Reading: higher = stronger binding
Target sequence (chain): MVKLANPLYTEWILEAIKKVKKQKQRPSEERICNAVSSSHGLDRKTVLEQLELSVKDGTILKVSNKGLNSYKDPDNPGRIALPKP
For `TAGAGATA`, the E-score was -0.245.
The E-score of `ACGGGTGC` is reported as 0.321.
`ACCTGGGA` has an E-score of -0.195.
`CCTGATCC` gave an E-score of -0.179.
`CCAGGACC` gave an E-score of -0.126.
The E-score of `AGGTTACC` is reported as 0.0481.
The E-score of `ATTATTGC` is reported as 0.0428.
With `GAGGATGA` the E-score was -0.0659.
The E-score of `GATGCTCA` is reported as -0.0899.
`TAAAAGTA` has an E-score of 0.107.
With `CCAGTTCA` the E-score was 0.0236.
The E-score of `GTCGTTGA` is reported as -0.0947.
The E-score of `CTTGGTAA` is reported as -0.0889.
`TCCTGGAA` has an E-score of -0.197.
With `AGCCCGCG` the E-score was 0.354.
For `AGGATAAC`, the E-score was -0.213.

Study 5
Target: Interferon regulatory factor 5, full length, phosphomimetic (IRF5, Homo sapiens, UniProt Q13568-2, residues 1-514, S451D/S453D/S456D/S462D)
Technique: protein-binding microarray
Form: double-stranded DNA, one strand shown
Medium: in vitro
Concentration: 940 nM top
Notes: 60-bp whole probe
Added: salmon DNA 0.4 mg/ml
Baseline: random background probes
Reading: higher = stronger binding
Shared flanks, not repeated: GCCTAGCAC … GTCTTGATTCGCTTGACGCTGCTG
`TCAGTTTTCATTATTGCACTGTGCTAG`: “fitted relative affinity” 2.25 z-score.
For `GACGATATCAGTTCCGAGACGTGCTAG`, “fitted relative affinity” read 0.408 z-score.
For `GACGCTTCCAGTTTCGAGACGTGCTAG`, “fitted relative affinity” read 4.14 z-score.
Under “fitted relative affinity”, `GACGAACTCAGACTGGAGACGTGCTAG` is recorded as -0.557 z-score.
`TTAGATATTAGTCTCGATTAGTGCTAG` — result for “fitted relative affinity”: 3.69 z-score.
`GATGGTATCGGGTTTCGGGACGTGCTA` — result for “fitted relative affinity”: 6.31 z-score.
`ATTGCTTCCTCTTTACTGCTGTGCTAG` — result for “fitted relative affinity”: 1.24 z-score.
For `TTAGGTCTCGGACTGCGTTAGTGCTAG`, “fitted relative affinity” read 0.877 z-score.
`CTAGAACTGGGGACTGGATTAGTGCTA` — result for “fitted relative affinity”: -0.089 z-score.
Under “fitted relative affinity”, `TTAGGATTCGGGTATCGGTTAGTGCTA` is recorded as 3.42 z-score.
For `TCACATGTGGGTTCCATACTGTGCTAG`, “fitted relative affinity” read 0.0335 z-score.
Under “fitted relative affinity”, `GTATTTGTCCCTATTTAAGAGTGCTAG` is recorded as 1.51 z-score.
For `GACGAACTGGGGTTTCTAGACGTGCTA`, “fitted relative affinity” read 0.323 z-score.
`TACGATCTCAGTATCGAGACGTGCTAG` — result for “fitted relative affinity”: 2.03 z-score.
Under “fitted relative affinity”, `TCAGGTATAAACTTGGGACTGTGCTAG` is recorded as -0.413 z-score.
For `GACGGTTTCCTTATCCCGACGTGCTAG`, “fitted relative affinity” read 2.68 z-score.
For `AGGCCCTTTGCTTTCCTGATGTGCTAG`, “fitted relative affinity” read 0.143 z-score.
`GACGAAATCAGACTGGAGACGTGCTAG` — result for “fitted relative affinity”: -0.294 z-score.
`TTAGTTATCCTACTGCTTTAGTGCTAG`: “fitted relative affinity” 0.448 z-score.
`GACGAGATCAGACTGGAGACGTGCTAG`: “fitted relative affinity” -0.243 z-score.

For quick reference, copied from above (study 2):
`KNAKRNLPSEFAN [S8P]` — result for “normalised enrichment score”: 0.0837.
For `KNAKRNLSSPFAN [E10P]`, “normalised enrichment score” read 0.209.
For `KNEKRNLSSEFAN [A3E]`, “normalised enrichment score” read -0.0884.
`KNHKRNLSSEFAN [A3H]` — result for “normalised enrichment score”: 0.0999.
For `KNAKRNASSEFAN [L7A]`, “normalised enrichment score” read 0.5.
For `KNAKRNLSSERAN [F11R]`, “normalised enrichment score” read 0.122.
Under “normalised enrichment score”, `KNRKRNLSSEFAN [A3R]` is recorded as 0.0475.
For `KNAKRNLSTEFAN [S9T]`, “normalised enrichment score” read 0.511.
